Literature values that unrelated publications cite.
± gives the spread as reported.

Under “bimolecular inactivation rate”, `CNC(=O)Oc1cccc2ccccc12` is recorded as 7330 M⁻¹ s⁻¹ (acetylcholinesterase 1 (Anopheles gambiae); enzyme activity, inhibitor; concentration not given).
`Cc1cc(O)cc(C)c1C[C@H](N)C(=O)N[C@H](CCCNC(=N)N)C(=O)N[C@@H](Cc1ccccc1)C(=O)N[C@@H](CCCCN)C(N)=O` — result for Ke: “inactive” (delta opioid receptor; muscle contraction, antagonist; mouse vas deferens).
`CO[P@]1(=O)OC[C@H]2COC(=O)C2=C(C)O1` has an IC50 of 0.0008 µM (insect acetylcholinesterase; enzyme activity, inhibitor).
For `C=C(C)[C@@H]1[C@H]2OC(=O)[C@@H]1[C@]1(O)C[C@H]3O[C@]34C(=O)O[C@H]2[C@]14C`, the affinity was 32 nM (GABA-A receptor beta-3 homopentamer; binding).
`C=C(C)[C@@H]1[C@H]2OC(=O)[C@@H]1[C@]1(O)C[C@H]3O[C@]34C(=O)O[C@H]2[C@]14C` gave an IC50 of roughly 4 µM (GABAA receptor; ion current, inhibitor, whole-cell patch clamp; cells expressing recombinant receptors).
The melting temperature of `Cc1cn(CC(=O)N(CCNC(=O)CN(CCNC(=O)CN(CCNC(=O)CN(CCNC(=O)CN(CCNC(=O)CN(CCNC(=O)CN(CCNC(=O)CN(CCNC(=O)CN(CCNC(=O)CN(CCNC(=O)COCCOCCNC(=O)COCCOCCNC(=O)[C@H](CNC(=O)[C@H](CNC(=O)[C@H](CNC(=O)[C@H](CNC(=O)COCCOCCNC(=O)CN2CCN(CC(=O)O)CCN(CC(=O)O)CCN(CC(=O)O)CC2)NC(=O)COCCOCCNC(=O)CN2CCN(CC(=O)O)CCN(CC(=O)O)CCN(CC(=O)O)CC2)NC(=O)[C@H](CNC(=O)COCCOCCNC(=O)CN2CCN(CC(=O)O)CCN(CC(=O)O)CCN(CC(=O)O)CC2)NC(=O)COCCOCCNC(=O)CN2CCN(CC(=O)O)CCN(CC(=O)O)CCN(CC(=O)O)CC2)NC(=O)[C@H](CNC(=O)[C@H](CNC(=O)COCCOCCNC(=O)CN2CCN(CC(=O)O)CCN(CC(=O)O)CCN(CC(=O)O)CC2)NC(=O)COCCOCCNC(=O)CN2CCN(CC(=O)O)CCN(CC(=O)O)CCN(CC(=O)O)CC2)NC(=O)[C@H](CNC(=O)COCCOCCNC(=O)CN2CCN(CC(=O)O)CCN(CC(=O)O)CCN(CC(=O)O)CC2)NC(=O)COCCOCCNC(=O)CN2CCN(CC(=O)O)CCN(CC(=O)O)CCN(CC(=O)O)CC2)NC(=O)[C@H](CNC(=O)[C@H](CNC(=O)[C@H](CNC(=O)COCCOCCNC(=O)CN2CCN(CC(=O)O)CCN(CC(=O)O)CCN(CC(=O)O)CC2)NC(=O)COCCOCCNC(=O)CN2CCN(CC(=O)O)CCN(CC(=O)O)CCN(CC(=O)O)CC2)NC(=O)[C@H](CNC(=O)COCCOCCNC(=O)CN2CCN(CC(=O)O)CCN(CC(=O)O)CCN(CC(=O)O)CC2)NC(=O)COCCOCCNC(=O)CN2CCN(CC(=O)O)CCN(CC(=O)O)CCN(CC(=O)O)CC2)NC(=O)[C@H](CNC(=O)[C@H](CNC(=O)COCCOCCNC(=O)CN2CCN(CC(=O)O)CCN(CC(=O)O)CCN(CC(=O)O)CC2)NC(=O)COCCOCCNC(=O)CN2CCN(CC(=O)O)CCN(CC(=O)O)CCN(CC(=O)O)CC2)NC(=O)[C@H](CNC(=O)COCCOCCNC(=O)CN2CCN(CC(=O)O)CCN(CC(=O)O)CCN(CC(=O)O)CC2)NC(=O)COCCOCCNC(=O)CN2CCN(CC(=O)O)CCN(CC(=O)O)CCN(CC(=O)O)CC2)C(=O)Cn2cnc3c(=O)[nH]c(N)nc32)C(=O)Cn2ccc(N)nc2=O)C(=O)Cn2ccc(N)nc2=O)C(=O)Cn2cnc3c(N)ncnc32)C(=O)Cn2cnc3c(N)ncnc32)C(=O)Cn2ccc(N)nc2=O)C(=O)Cn2cnc3c(N)ncnc32)C(=O)Cn2cnc3c(=O)[nH]c(N)nc32)C(=O)Cn2ccc(N)nc2=O)CC(=O)NCCN(CC(=O)NCCN(CC(=O)NCCOCCOCC(=O)N[C@@H]2CSSC[C@H](C(N)=O)NC(=O)[C@@H](CCCCN)NC(=O)[C@@H](CO)NC2=O)C(=O)Cn2ccc(N)nc2=O)C(=O)Cn2ccc(N)nc2=O)c(=O)[nH]c1=O` is reported as 68.8 ± 0.5 °C (KRAS G12D RNA 20-mer; PNA/RNA duplex).
For `CN1C(=O)CN=C(c2ccccc2)c2cc(Cl)ccc21`, the ED50 was 3 mg/kg (convulsive seizures; rat lithium-pilocarpine status epilepticus; 0 min after SE onset).
With `CCCC(=O)SCC[N+](C)(C)C` the relative Vmax was 0.11 (acetylcholinesterase 1 (Anopheles gambiae); substrate; with: acetylthiocholine; baseline: acetylthiocholine Vmax).
The IC50 of `CCOP(=O)(OCC)Oc1nc(Cl)c(Cl)cc1Cl` is reported as 0.069 µM (neuropathy target esterase human; enzyme activity, inhibitor; differentiated SH-SY5Y; 60 min).
With `COC(=O)[C@@H]1C[C@H](OC(C)=O)C(=O)[C@H]2[C@@]1(C)CC[C@H]1C(=O)O[C@H](c3ccoc3)C[C@]21C` the Ki was greater than 1 µM (mu opioid receptor; binding).
`CCCC(CCC)C(=O)O`: “convulsive seizure suppression” “no effect” (rat lithium-pilocarpine status epilepticus; 300 mg/kg, 30 min after SE onset).
For `Cc1cn(CC(=O)N(CCNC(=O)CN(CCNC(=O)CN(CCNC(=O)CN(CCNC(=O)CN(CCNC(=O)CN(CCNC(=O)CN(CCNC(=O)CN(CCNC(=O)CN(CCNC(=O)CN(CCNC(=O)COCCOCCNC(=O)COCCOCCNC(=O)[C@H](CNC(=O)[C@H](CNC(=O)[C@H](CNC(=O)[C@H](CNC(=O)COCCOCCNC(=O)CN2CCN(CC(=O)O)CCN(CC(=O)O)CCN(CC(=O)O)CC2)NC(=O)COCCOCCNC(=O)CN2CCN(CC(=O)O)CCN(CC(=O)O)CCN(CC(=O)O)CC2)NC(=O)[C@H](CNC(=O)COCCOCCNC(=O)CN2CCN(CC(=O)O)CCN(CC(=O)O)CCN(CC(=O)O)CC2)NC(=O)COCCOCCNC(=O)CN2CCN(CC(=O)O)CCN(CC(=O)O)CCN(CC(=O)O)CC2)NC(=O)[C@H](CNC(=O)[C@H](CNC(=O)COCCOCCNC(=O)CN2CCN(CC(=O)O)CCN(CC(=O)O)CCN(CC(=O)O)CC2)NC(=O)COCCOCCNC(=O)CN2CCN(CC(=O)O)CCN(CC(=O)O)CCN(CC(=O)O)CC2)NC(=O)[C@H](CNC(=O)COCCOCCNC(=O)CN2CCN(CC(=O)O)CCN(CC(=O)O)CCN(CC(=O)O)CC2)NC(=O)COCCOCCNC(=O)CN2CCN(CC(=O)O)CCN(CC(=O)O)CCN(CC(=O)O)CC2)NC(=O)[C@H](CNC(=O)[C@H](CNC(=O)[C@H](CNC(=O)COCCOCCNC(=O)CN2CCN(CC(=O)O)CCN(CC(=O)O)CCN(CC(=O)O)CC2)NC(=O)COCCOCCNC(=O)CN2CCN(CC(=O)O)CCN(CC(=O)O)CCN(CC(=O)O)CC2)NC(=O)[C@H](CNC(=O)COCCOCCNC(=O)CN2CCN(CC(=O)O)CCN(CC(=O)O)CCN(CC(=O)O)CC2)NC(=O)COCCOCCNC(=O)CN2CCN(CC(=O)O)CCN(CC(=O)O)CCN(CC(=O)O)CC2)NC(=O)[C@H](CNC(=O)[C@H](CNC(=O)COCCOCCNC(=O)CN2CCN(CC(=O)O)CCN(CC(=O)O)CCN(CC(=O)O)CC2)NC(=O)COCCOCCNC(=O)CN2CCN(CC(=O)O)CCN(CC(=O)O)CCN(CC(=O)O)CC2)NC(=O)[C@H](CNC(=O)COCCOCCNC(=O)CN2CCN(CC(=O)O)CCN(CC(=O)O)CCN(CC(=O)O)CC2)NC(=O)COCCOCCNC(=O)CN2CCN(CC(=O)O)CCN(CC(=O)O)CCN(CC(=O)O)CC2)C(=O)Cn2cnc3c(=O)[nH]c(N)nc32)C(=O)Cn2ccc(N)nc2=O)C(=O)Cn2ccc(N)nc2=O)C(=O)Cn2cnc3c(N)ncnc32)C(=O)Cn2cc(C)c(=O)[nH]c2=O)C(=O)Cn2ccc(N)nc2=O)C(=O)Cn2cnc3c(N)ncnc32)C(=O)Cn2cnc3c(=O)[nH]c(N)nc32)C(=O)Cn2ccc(N)nc2=O)CC(=O)NCCN(CC(=O)NCCN(CC(=O)NCCOCCOCC(=O)N[C@@H]2CSSC[C@H](C(N)=O)NC(=O)[C@@H](CCCCN)NC(=O)[C@@H](CO)NC2=O)C(=O)Cn2ccc(N)nc2=O)C(=O)Cn2ccc(N)nc2=O)c(=O)[nH]c1=O`, the melting temperature was 74.1 ± 1 °C (KRAS G12D RNA 20-mer; PNA/RNA duplex).
`CCOP(=O)(OCC)Oc1nc(Cl)c(Cl)cc1Cl` gave an IC50 of 0.2 µM (neuropathy target esterase (NEST); enzyme activity; 20 min, median of reported values).
For `methylarsonous diiodide`, the Kd was 0.013 to 0.106 µM (reduced thiol groups; binding).
`COc1ccc(CC(C)NCC(O)c2ccc(O)c(NC=O)c2)cc1` (centres unmarked) has a residence time of 0.33 min (β2-adrenergic receptor, human; binding).
The Kd of `quinacrine mustard` is reported as 27 µM (F1-ATPase beta subunit; binding).
For `C=C(C)[C@@H]1[C@H]2OC(=O)[C@@H]1[C@]1(O)C[C@H]3O[C@]34C(=O)O[C@H]2[C@]14C`, the IC50 was 3.7 µM (GABA-A receptor α1β3γ2; GABA-evoked current, inhibitor, patch clamp; with: GABA EC90).
`CN[C@H](CC(=O)O)C(=O)O` has an IC50 of greater than 100 µM (kainate receptor rat; [3H]kainate displacement; brain synaptosomes).
Under “loss of DNA cleavage potency”, `Cc1c(N2CC[C@@H](CN)C2)c(F)cc2c(=O)n(N)c(=O)n(C3CC3)c12` is recorded as roughly 5.6 fold (Escherichia coli gyrase GyrA S83W; baseline: wild type over mutant).
`dimethyl sulfoxide` has a Ki of 80000 µM (acetylcholinesterase Electrophorus electricus).
